Assay results from different studies.
Parts stem from different laboratories: compare values within a part only. Substitutions count along the parent as printed.

Block 1
Target: Interferon regulatory factor 5, full length, phosphomimetic (IRF5, Homo sapiens, UniProt Q13568-2, residues 1-514, S451D/S453D/S456D/S462D)
Method: protein-binding microarray
Form: double-stranded DNA, one strand shown
Medium: in vitro
Concentration: 940 nM top
Notes: 60-bp whole probe
With: salmon DNA 0.4 mg/ml
Relative to: random background probes
Reading: higher = stronger binding
All sequences stand within: GCCTAGCAC … GTCTTGATTCGCTTGACGCTGCTG
`TCATAACTCAAGATTCCTACTGTGCTA`: “fitted relative affinity” 0.394 z-score.
`GACGATTCCGGGTATCGAGACGTGCTA`: “fitted relative affinity” 1.3 z-score.
For `TCAACCATCTAGTTCTGACTGTGCTAG`, “fitted relative affinity” read -0.158 z-score.
`TTAGGTTTCGTTTTCCTTTAGTGCTAG`: “fitted relative affinity” 10.6 z-score.
`GACGTTTTCGGGACTGGGGACGTGCTA` — result for “fitted relative affinity”: 0.824 z-score.
For `TTAGATTTCGGCTATCGATTAGTGCTA`, “fitted relative affinity” read 1.12 z-score.
Under “fitted relative affinity”, `TTAGATTTCAGTGTCGATTAGTGCTAG` is recorded as 0.889 z-score.
For `CACGATATCGGGTTTCGAGACGTGCTA`, “fitted relative affinity” read 2.52 z-score.
Under “fitted relative affinity”, `TAAGGTATCGGACTGGGTTAGTGCTAG` is recorded as 1.94 z-score.
Under “fitted relative affinity”, `TCATTTATGTACTCTCTAACTGTGCTA` is recorded as 1.06 z-score.
For `AACGGTTTCGGTATCGGGACGTGCTAG`, “fitted relative affinity” read 12.9 z-score.
For `AACGGACTGGGGTTTCGGGACGTGCTA`, “fitted relative affinity” read 1.55 z-score.
Under “fitted relative affinity”, `TTAGGACTGGTTTTCGGTTAGTGCTAG` is recorded as 1.82 z-score.
Under “fitted relative affinity”, `GACGGTTTCGGAATGGGGACGTGCTAG` is recorded as 7.7 z-score.
Under “fitted relative affinity”, `TTAGGTCTCAGTATCGATTAGTGCTAG` is recorded as 5.2 z-score.
`GACGGTTTCGGGTATTGGGACGTGCTA`: “fitted relative affinity” 8.5 z-score.
`GACGATATCGGGTTTCGAAACGTGCTA` — result for “fitted relative affinity”: 3.72 z-score.
`TCACTCCTATCTTATGATACTGTGCTA`: “fitted relative affinity” 1.01 z-score.

Block 2
Target: RING finger protein unkempt homolog, zinc fingers 1-6, GST-SBP tag (UNK, Homo sapiens, UniProt Q9C0B0, residues 30-357)
Method: RNA Bind-n-Seq
Form: RNA
Medium: in vitro
Concentration: not given
Notes: RNA with constant flanks, human and mouse sites, ends assumed
Relative to: input RNA pool
Reading: higher = stronger binding
Residues (chain): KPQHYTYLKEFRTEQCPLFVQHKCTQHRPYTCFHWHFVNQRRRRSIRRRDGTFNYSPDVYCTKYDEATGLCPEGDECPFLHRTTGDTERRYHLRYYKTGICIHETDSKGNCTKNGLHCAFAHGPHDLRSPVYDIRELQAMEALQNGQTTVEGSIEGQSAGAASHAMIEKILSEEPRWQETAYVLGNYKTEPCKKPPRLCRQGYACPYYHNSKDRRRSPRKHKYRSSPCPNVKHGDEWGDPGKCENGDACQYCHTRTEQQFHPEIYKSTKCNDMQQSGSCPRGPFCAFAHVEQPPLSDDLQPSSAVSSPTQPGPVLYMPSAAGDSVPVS
`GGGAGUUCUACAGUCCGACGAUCGAAUUCCUAACUUGGUGUCAGUUUCUAAGGCCUUUAGUGUCUUGGAUAUUCUACUGUGUGUUUAGAACUGUUAAGUGUCACCUUAUUCUGGGAUUAUUGUCCUAGAAAUAUUCUGUUCUUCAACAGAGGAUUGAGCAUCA` has a bound/input enrichment of 0.0626 ratio.
With `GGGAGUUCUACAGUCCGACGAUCGGAGACAACAAACAAACCACUGUGUCGAACUCCCAGCAGGCUUACCAGGAAGCAUUUGAAAUUAGUAAGAAAGAAAUGCAGCCUACACACCCAAUUCGUCUUGGUCUGGCACUAAAUUUCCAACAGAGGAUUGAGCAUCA` the bound/input enrichment was 0.327 ratio.
`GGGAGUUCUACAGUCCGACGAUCGAGGGAAACGCCUCCGUCUCUAUAUAAGGAAUUUUCCGGUCUCUUCGGGUCCUUUUUCCUCUCUUCAGCGUGGGGCGCCCACAAUUUGCGCGCUCUCUUUCUGCUGCUCCCCAGCUCUCGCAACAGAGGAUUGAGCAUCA` has a bound/input enrichment of 0.239 ratio.
With `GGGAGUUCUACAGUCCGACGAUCACCUUGAUAUCCUCAGCCCAAAGGCGAUGCCCCCCUGCCACCUCCAAGCCUGGAAUUGUGCAUAACCCGGAUCUUGUAUCUUUGUAUAACGGAUGUUAUUUGUACGAAGGGCAGUUCGUACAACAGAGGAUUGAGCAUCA` the bound/input enrichment was 0.479 ratio.
With `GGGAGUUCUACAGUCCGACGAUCGUUUUCUCCUAAUGGGCAUAUGUAUCUUUGUGGACACUUGGAAGAGAGGUUUUCUUGUACUCUCUCAUUUCUAGAAUCUUUAUACUCUUUUUCCUGCAAGGUUCUCUGCUUUUAACAGAUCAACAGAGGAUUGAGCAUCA` the bound/input enrichment was 2.41 ratio.
`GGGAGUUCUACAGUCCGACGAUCGUUCAAAAAUAUGAUCCCAUUAACUCGAUGCUGAGUAUCUACAUGGAUACAUUAAAUAUAUUUAUGCGAGUUGCAACUAUGCUGGCAACUGGAGGCAACAGAAAGAAAUGAAGUGACUCACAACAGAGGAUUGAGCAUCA` gave a bound/input enrichment of 0.432 ratio.
`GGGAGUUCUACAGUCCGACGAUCCAGGAAUGCGGGGAGGCCUUUGCUCGUAGGUCUGAGCUCAUUGAGCACCAGAAGAUUCAUGAUAGAGAAAGACCUUCUGGAAGCCGACAUUAUGAGCGCUCUGUCAUCCGCAGCCUUGCGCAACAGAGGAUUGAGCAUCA` has a bound/input enrichment of 0.138 ratio.
`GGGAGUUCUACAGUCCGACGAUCUGACUUUGCGUAGGCUUGCGGGUGUCCAGGCCGCCUAGGCUGGAGAGAAAGCCAGUAGAAAUAGAUAUGAUUGUAGGAAAAGACCGGGAAGGUUUCUUUACCAACGGUUUGACUCUUGGACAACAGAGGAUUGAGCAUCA` has a bound/input enrichment of 3.33 ratio.

Block 3
Target: Histone acetyltransferase KAT6A, winged helix 1, GST fusion (KAT6A, Homo sapiens, UniProt Q92794, residues 1-85)
Method: protein binding microarray
Form: double-stranded DNA, one strand shown
Medium: in vitro
Concentration: not given
Notes: 8-mer, flanks averaged, mean of 2 arrays, mostly near background
Relative to: not given
Reading: higher = stronger binding
Construct (chain): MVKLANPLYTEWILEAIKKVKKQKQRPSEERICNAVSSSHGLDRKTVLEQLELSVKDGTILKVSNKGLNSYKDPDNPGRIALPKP
`AAGGGTCC` gave an E-score of 0.0961.
The E-score of `ATCGCTTC` is reported as 0.0506.
For `AGGTCCAT`, the E-score was -0.24.
With `ATACTCGA` the E-score was 0.0267.
`TCTTGGAA` gave an E-score of -0.186.
For `GTCCGTTA`, the E-score was 0.114.
`CTGCTCGC` has an E-score of 0.0443.
The E-score of `CTAGCGCC` is reported as 0.294.
For `ACCCTATA`, the E-score was -0.241.
The E-score of `CGGCGAAA` is reported as 0.302.
`CGCCATCC` gave an E-score of 0.0642.
For `AAGGGTGG`, the E-score was -0.216.
For `CGATACAG`, the E-score was -0.137.
For `GATAGGGA`, the E-score was -0.167.
The E-score of `AGGGTCTA` is reported as -0.0462.
For `ACGACGAT`, the E-score was -0.00947.
With `AATTTGTC` the E-score was -0.189.
`CCCGTGTC` has an E-score of 0.271.
With `ATCGTACA` the E-score was -0.0928.

Block 4
Target: ABI1, truncated, D143A, DHFR fusion (Arabidopsis thaliana)
Method: DHFR PCA, deep sequencing
Medium: yeast
Notes: methotrexate growth selection, single substitutions
With: (+)-ABA 0 µM
Relative to: wild-type fitted maximum
Reading: higher = stronger binding
Starting sequence: PYL1, truncated, DHFR fusion (Arabidopsis thaliana); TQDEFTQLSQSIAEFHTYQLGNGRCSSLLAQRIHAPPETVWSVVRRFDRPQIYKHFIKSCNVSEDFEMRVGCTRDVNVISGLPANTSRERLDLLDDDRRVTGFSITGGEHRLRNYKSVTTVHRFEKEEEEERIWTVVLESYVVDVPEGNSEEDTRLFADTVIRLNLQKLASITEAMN; partner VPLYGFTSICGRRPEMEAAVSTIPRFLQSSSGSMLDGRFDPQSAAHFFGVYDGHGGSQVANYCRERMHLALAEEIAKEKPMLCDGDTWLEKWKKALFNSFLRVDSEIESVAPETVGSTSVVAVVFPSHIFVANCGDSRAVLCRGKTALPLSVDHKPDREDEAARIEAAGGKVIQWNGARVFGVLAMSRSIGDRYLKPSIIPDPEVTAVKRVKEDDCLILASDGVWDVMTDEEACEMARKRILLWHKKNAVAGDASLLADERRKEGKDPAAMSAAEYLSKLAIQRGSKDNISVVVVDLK
For `R32Y`, “relative binding score” read 12.2%.
`L28C`: “relative binding score” 8.51%.
Under “relative binding score”, `V121W` is recorded as -2.13%.
`S171N` — result for “relative binding score”: 31.1%.
For `K116N`, “relative binding score” read 4.88%.
Under “relative binding score”, `I162P` is recorded as 3.42%.
`A175G`: “relative binding score” 27.1%.
`L169A` — result for “relative binding score”: -0.296%.
`G23M` — result for “relative binding score”: 3.62%.
Under “relative binding score”, `D75S` is recorded as 17.5%.
`F5N` — result for “relative binding score”: -8.1%.
`E67Q`: “relative binding score” 27.6%.
`R24M` — result for “relative binding score”: 10.3%.
`V62F` — result for “relative binding score”: -8.14%.
For `S26D`, “relative binding score” read 0.619%.
`L28M`: “relative binding score” 14.4%.
For `F124H`, “relative binding score” read 7.44%.
`H16Q` — result for “relative binding score”: -1.75%.
`S140M`: “relative binding score” 3.23%.
`K58Q`: “relative binding score” 10.2%.
Under “relative binding score”, `R111I` is recorded as 3.9%.
`S171T`: “relative binding score” 35.4%.
`N77E`: “relative binding score” 59%.
For `T106K`, “relative binding score” read -1.12%.
Under “relative binding score”, `H55G` is recorded as 3.23%.

Block 5
Target: CCNE2, cyclin fold, Cln2 fusion (human)
Method: yeast growth competition, sequencing
Medium: yeast
Notes: weak parent motif
Relative to: not given
Reading: higher = stronger binding
Starting sequence: LLGL2 docking peptide (human); KSLKKSLRQSFRR; partner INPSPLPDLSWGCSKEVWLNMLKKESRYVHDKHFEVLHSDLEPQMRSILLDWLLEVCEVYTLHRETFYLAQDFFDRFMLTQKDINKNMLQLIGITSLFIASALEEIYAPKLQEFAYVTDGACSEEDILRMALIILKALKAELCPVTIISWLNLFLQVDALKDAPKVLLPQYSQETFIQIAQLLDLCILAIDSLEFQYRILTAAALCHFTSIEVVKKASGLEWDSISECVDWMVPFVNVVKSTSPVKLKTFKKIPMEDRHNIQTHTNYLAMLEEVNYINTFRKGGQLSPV
Under “normalised enrichment score”, `KALKKSLRQSFRR [S2A]` is recorded as 0.38.
`KSLKKSLAQSFRR [R8A]` — result for “normalised enrichment score”: 0.46.
`KSLKKSLRASFRR [Q9A]` — result for “normalised enrichment score”: 1.06.
Under “normalised enrichment score”, `ASLKKSLRQSFRR [K1A]` is recorded as 0.24.
`KSLKKSLRQSFAR [R12A]` — result for “normalised enrichment score”: 0.699.
`KSLKASLRQSFRR [K5A]` — result for “normalised enrichment score”: 0.563.

Excerpt of the above (block 1):
`TTAGGTTTCGTTTTCCTTTAGTGCTAG`: “fitted relative affinity” 10.6 z-score.
Under “fitted relative affinity”, `GACGGTTTCGGAATGGGGACGTGCTAG` is recorded as 7.7 z-score.
Under “fitted relative affinity”, `TTAGGTCTCAGTATCGATTAGTGCTAG` is recorded as 5.2 z-score.
Under “fitted relative affinity”, `TCATTTATGTACTCTCTAACTGTGCTA` is recorded as 1.06 z-score.
For `TTAGATTTCGGCTATCGATTAGTGCTA`, “fitted relative affinity” read 1.12 z-score.
